Experimental data pooled from the literature.
Every numbered part comes from another study and shows a few of its results, in no order. Changes are numbered by the printed parent chain.

Block 1 — technique: aptamer microarray, sandwich; molecule type: DNA with 2'F-ANA; medium: in vitro; tested at: 200 nM; added: Cy3 exosite-II aptamer, 400 nM; direction: higher = stronger binding; sequence: GGTTGGTGTGGTTGG
Target: Prothrombin, mature alpha-thrombin (F2, Homo sapiens, UniProt P00734)
Notes: whole 15-mer aptamer, many near background
| Modification | mean fluorescence intensity [a.u.] |
| --- | --- |
| 2'F-ANA at 1 2 3 5 9 10 12 14 | 51 |
| 2'F-ANA at 2 3 4 6 12 13 14 15 | 269 |
| 2'F-ANA at 1 3 4 8 13 14 15 | 80.1 |
| 2'F-ANA at 2 6 7 9 11 13 14 15 | 140 |
| 2'F-ANA at 3 5 7 9 11 12 | 217 |
| 2'F-ANA at 4 6 7 12 13 14 15 | 98.4 |
| 2'F-ANA at 4 5 9 11 15 | 53.4 |
| 2'F-ANA at 2 3 5 6 8 11 13 15 | 92 |
| 2'F-ANA at 1 3 4 7 8 10 13 14 | 82.8 |
| 2'F-ANA at 1 6 11 | 144 |
| 2'F-ANA at 7 8 11 15 | 515 |
| 2'F-ANA at 1 2 5 8 11 12 13 14 15 | 47.3 |
| 2'F-ANA at 3 5 6 7 8 9 13 | 89.6 |
| 2'F-ANA at 2 3 4 6 8 9 11 12 15 | 611 |
| 2'F-ANA at 1 2 4 7 8 13 | 112 |
| 2'F-ANA at 2 9 10 11 13 | 108 |
| 2'F-ANA at 4 7 9 10 11 14 | 61.5 |
| 2'F-ANA at 2 4 7 8 11 14 15 | 152 |
| 2'F-ANA at 1 3 8 9 10 12 14 | 60 |
| 2'F-ANA at 6 8 9 12 | 863 |
| 2'F-ANA at 1 4 5 7 8 10 12 | 45.6 |
| 2'F-ANA at 2 3 9 10 12 13 15 | 400 |

Block 2 — technique: RNA Bind-n-Seq; molecule type: RNA; medium: in vitro; tested at: not given; baseline: input RNA pool; direction: higher = stronger binding
Target: RING finger protein unkempt homolog, zinc fingers 1-6, GST-SBP tag (UNK, Homo sapiens, UniProt Q9C0B0, residues 30-357)
Notes: RNA with constant flanks, human-mouse chimeric sites, ends assumed
Shared flanks, not repeated: GGGAGUUCUACAGUCCGACGAUC … CAACAGAGGAUUGAGCAUCA
Residues (chain): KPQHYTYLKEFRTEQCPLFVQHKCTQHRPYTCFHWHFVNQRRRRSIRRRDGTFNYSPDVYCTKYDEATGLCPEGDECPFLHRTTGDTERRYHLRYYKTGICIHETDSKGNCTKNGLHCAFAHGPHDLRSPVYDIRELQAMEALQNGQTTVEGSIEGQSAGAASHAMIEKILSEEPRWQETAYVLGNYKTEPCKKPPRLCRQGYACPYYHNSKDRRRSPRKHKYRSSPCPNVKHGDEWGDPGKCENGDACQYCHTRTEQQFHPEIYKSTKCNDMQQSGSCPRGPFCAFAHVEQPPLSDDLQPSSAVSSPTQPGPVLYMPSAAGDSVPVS
| Sequence | bound/input enrichment [ratio] |
| --- | --- |
| GUGUCCUGCUUUCAACUUAAAUCACUGAGGCAUCUCUACUAUUCUGUGAGCAUCAGGAUUUUAGUGCUGUGUCACCACAUGAGAGUUCAGAAGCAGCCUUUCUGUGGAGGGUGGGAAUGA | 0.125 |
| GUAUUUGUGCGCUCCCCACUCGUGUUUGUAUUUUUAUUUUUAUAAGAUACAUGUAUUUACAAUUGAGCUUUUGUUACAUAAUGCUGAAAUGCUACUGGAGAUUAUGAAAAAUGUUUCAAU | 0.23 |
| CUGGCCUGGCCCUCCCCUCUAGUGACCUUUCGUAUAGUCACUGCUUCUGCAUCAGAUACUUUCAGCUGCAACUCCCUACUGGGUGGGGCACCCAUUUCAGGCAGAAGGUUUUGGUACCCU | 0.391 |
| AAAGUGAUGACUAUGUUUGUCCAACGACAGGUAUUUUCUGAGAACAAAGAUGAGAUUGCGUUAGUCCUCUAUGGCACAGAUGGCACUGAUAAUGCCCUUGCUGGCAAGGAUCAGUAUCAG | 0.095 |
| UCUUAACGUCCAUUUAAAACUUAUUUUUAUAGCUAGAUAAAUAUUGUUAGUCUUAGACAAUAGCUCACAUUUUUUGAGAAGCAUGCCCUCCCUGUCCAUUUGUCUUACAAUAACACUCAG | 63.7 |
| UCUUUAAAAAAAAAAUUACCUUUUCUGACAGUGCUUUCCCUCCCAUAGGUCCAGGUUCAAGCUCAAAGAGCAAAGGCUUUGCACGGAGCUCAAACAUAAAAGAAAGAAAGAUUUCUGAGA | 0.433 |
| CUGUGACCACAAGAUCCUACCUGAGUGGCAGCUGAAGUUGACUCCCUCCCCUUCCCUGAACCCCCCCCCACUGCCCCCCCAUCCCCCGCAGAAUUCCGAGAUGUUGCCUCUGCACGGUUC | 1.32 |
| GAGUCGAGCAAACUUGAAACAAUUCGUUAUCUUGCAGCCUCAGUGUUCACUUGCUUGUGGCAAUAGCUGGGGUUUUAUAGGUUCUGGAAGGAGAACUUUAAUGCUCACUGCCGCUGCUGC | 0.176 |

Block 3 — target: CCNA2, cyclin fold, Cln2 fusion (human); technique: yeast growth competition, sequencing; medium: yeast; notes: strong parent motif; baseline: not given; direction: higher = stronger binding
Parent: WEE1 docking peptide (human); HKTFRKLRLFDTP
| Variant | normalised enrichment score |
| --- | --- |
| HPTFRKLRLFDTP [K2P] | 1.17 |
| HKTFHKLRLFDTP [R5H] | 2.21 |
| HKTFRKTRLFDTP [L7T] | 1.08 |
| HKTWRKLRLFDTP [F4W] | 2.32 |
| HRTFRKLRLFDTP [K2R] | 2.53 |
| HKTFRKLRLFATP [D11A] | 1.3 |
| HKTFRKLFLFDTP [R8F] | 1.44 |
| HKTFRKLRLFHTP [D11H] | -0.0303 |
| FKTFRKLRLFDTP [H1F] | 1.18 |
| DKTFRKLRLFDTP [H1D] | 1.53 |
| HKTFRKLRLFDTA [P13A] | 2.28 |
| HKWFRKLRLFDTP [T3W] | 1.2 |
| HKTFWKLRLFDTP [R5W] | 1.77 |

Block 4 — technique: universal PBM; molecule type: double-stranded DNA, one strand shown; medium: in vitro; tested at: 600 nM; direction: higher = stronger binding
Target: Sal-like protein 4, full length isoform A (SALL4, Homo sapiens, UniProt Q9UJQ4, residues 1-1053)
UniProt Q9UJQ4, sequence (whole entry, looked up): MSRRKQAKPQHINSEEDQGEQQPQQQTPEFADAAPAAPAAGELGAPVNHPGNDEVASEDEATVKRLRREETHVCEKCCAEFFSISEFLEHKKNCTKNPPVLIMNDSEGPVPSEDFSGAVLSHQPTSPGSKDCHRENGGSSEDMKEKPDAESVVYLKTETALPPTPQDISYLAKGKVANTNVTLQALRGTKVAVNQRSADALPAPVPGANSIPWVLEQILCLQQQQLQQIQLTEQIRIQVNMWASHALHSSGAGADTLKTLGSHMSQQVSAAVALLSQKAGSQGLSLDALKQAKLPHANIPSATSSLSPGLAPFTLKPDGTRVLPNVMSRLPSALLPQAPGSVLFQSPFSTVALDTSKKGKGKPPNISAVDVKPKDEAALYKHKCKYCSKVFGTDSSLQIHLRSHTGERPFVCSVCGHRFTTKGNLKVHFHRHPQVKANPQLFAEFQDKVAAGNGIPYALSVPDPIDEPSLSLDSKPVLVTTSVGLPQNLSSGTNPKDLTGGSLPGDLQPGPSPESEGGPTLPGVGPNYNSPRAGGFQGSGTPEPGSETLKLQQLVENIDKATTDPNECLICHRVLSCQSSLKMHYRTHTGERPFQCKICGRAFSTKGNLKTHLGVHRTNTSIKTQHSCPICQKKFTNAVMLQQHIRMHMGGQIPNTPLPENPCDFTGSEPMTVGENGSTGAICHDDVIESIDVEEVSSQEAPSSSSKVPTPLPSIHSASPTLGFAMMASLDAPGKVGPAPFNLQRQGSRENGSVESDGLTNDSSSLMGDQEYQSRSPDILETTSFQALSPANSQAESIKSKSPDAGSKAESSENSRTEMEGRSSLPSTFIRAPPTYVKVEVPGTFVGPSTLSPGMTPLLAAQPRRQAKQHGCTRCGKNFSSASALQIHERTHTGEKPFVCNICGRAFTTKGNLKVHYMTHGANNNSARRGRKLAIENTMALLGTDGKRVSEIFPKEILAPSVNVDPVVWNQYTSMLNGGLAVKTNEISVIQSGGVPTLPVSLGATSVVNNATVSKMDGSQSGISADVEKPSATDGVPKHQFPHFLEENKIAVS
Notes: 8-mer, flanks averaged, mean of replicates
| Sequence | E-score |
| --- | --- |
| ACGCCCCG | -0.355 |
| AATGATTG | 0.186 |
| ACTATTTA | 0.279 |
| CGTGTTCA | 0.0741 |
| CCTCTACA | 0.0324 |
| GGATAGAC | -0.0346 |
| GACGACTC | -0.259 |
| ATCCAAAC | 0.0868 |
| GAGCGTAA | 0.036 |
| AGCCAAGG | -0.128 |
| GTCCAGGA | -0.145 |
| AGAAGGTC | -0.07 |
| AACGATTG | 0.235 |
| AAGAGAAA | 0.039 |
| AGCGGCCG | -0.287 |
| AAGGACAA | 0.0799 |
| GAGCGCAA | -0.214 |
| AGCATTCC | -0.0379 |
| CAAAGCCA | -0.0779 |
| TTACGAAA | 0.203 |
| GGTGAAAC | -0.079 |
| ACCAGTGC | -0.307 |
| AGCTCGCC | -0.29 |
| AAATGGGA | 0.0679 |
| CACTCTAA | 0.114 |

Block 5 — technique: RNA Bind-n-Seq; molecule type: RNA; medium: in vitro; tested at: 365 nM; baseline: no-protein control; direction: higher = stronger binding
Target: RNA binding protein fox-1 homolog 2, RRM domain, GST-SBP tag (RBFOX2, Homo sapiens, UniProt O43251-10, residues 100-194)
Notes: natural RNA segment, single round, ends assumed
Shared flanks, not repeated: GGGAGUUCUACAGUCCGACGAUC … UGGAAUUCUCGGGUGCCAA
Target sequence (chain): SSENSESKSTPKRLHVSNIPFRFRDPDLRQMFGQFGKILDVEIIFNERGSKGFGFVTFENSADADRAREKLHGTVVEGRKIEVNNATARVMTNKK
| Sequence | RBNS enrichment (R) |
| --- | --- |
| UCUACCUUGAUGUUUUUAAAAAAACACCCAUCUCCAGCUCACACACUGUUUUCUGGAAAUAAAGCCCUACUCUACAAAAAAAAUGAAGAUGGCUUGUGGGAAAAGAUCUC | 0.332 |
| UUUGACCAGAAGAGGAAGCUUGGGGUUGAAUGGGGUGGCUCCAUUCUUCACCACUGGACUGCGGGAGGCGGCUGCACCAGGCCCUCAGUGGAGCGCUGCUGUGACCACUG | 0.677 |
| UUGUUCUGGUGGGUGUGUCACGCUCCCAGAAGACUGAAUUCAUGGUAGGAUCACUCGCAAGGCCUUGUGAAGGAGUCUUACCUAAAACGAAAGAAAUAUCAGGGACUUUU | 0.239 |
| UACAUGGUUAAAGCAGCAAGAAUUCUUUUGUUGAUAUGUAAUUAUACACAUAAAAUAUAUAUAUGUAUGAUACAUGAAAUAUAUUUAGAAAUGUUCAUAAUUUUAAUGGA | 0.804 |
| CUCCUCCCCCCUCCUCUGAAACAGCUGCCUUAGCUUCAGGAACCUCGAGUACUGUGGGCAAUUUAGAAAAAGAACAUGCAGUUUGAAAUUCUGAAUUUGCAAAGUACUGU | 0.478 |
| CAAUUUACUGUUUCACUGCACAGCAAUCACAGCCAGUGAAUGUUACACACAUCUUGCUAGACUAGUAUAAAAAUCAUUGGGUAAUUGUUGGUUCUAAUGACCUGAAAGGU | 0.349 |
| GGGAGUCCACAACUAUGAAUGUAUUUACUUCCAACAUUUCCCAAAAUGAAAACUAUAAAUUGCAAGUAUUCUGGAAUUGGGAAAUACUUAUUUUAAAUGAGAUCAGGUAG | 1.05 |
| UGUAUUGGAAGUCAGAUUUCUAGUAGGAAAUGUGGUCAAAUCCCUGUUGGUGAACAAAUGGCCUUUAUUAAGAAAUGGCUGGCUCAGGGUAAGGUCCGAUUCCUACCAGG | 0.608 |
| CAGGCGCGCACCGCCCAACCCCCACCUCCCGGUGUAUGCAGUGGUGAUGCCUAAAGGAAUGUCACGCAGUUUUCGGUCUGUGUCGCUUGUUGACGCCGGCAGACAGUGUA | 0.603 |
| ACCCUAUCUGCUUGUCUCGUCCAGGAAGCGUUAGGGCUGAUGGGUGACUCAGCAAGGCAGUGUCAGAGCUGGGACUGGGCGUAGGCCUUUGUCCUCAUCCCCAGCACUGG | 0.229 |
| GGCAGUUUCCAGACAGGAGAGCAAAUGCAACUCACAGCACCUGCUCAUGACCUUGGCUGAUAGGCAUGUGAAGUAGGAUGAAGCAGGACUCUUUAAUGUCAAAAAAACUG | 0.653 |
| AGGGGUCCCAGCAGAGGCCUGUGUCGUGUAACCCAGGGACUACAAGUGUCAGUGUGGGUAUCAACCUCAAAGUCAGGCACUUGAGCCAUGUGUGGUCCUCCUCCAUCUGG | 0.331 |

Block 6 — technique: protein binding microarray; molecule type: double-stranded DNA, one strand shown; medium: in vitro; tested at: not given; baseline: not given; direction: higher = stronger binding
Target: Histone acetyltransferase KAT6A, winged helix 1, GST fusion (KAT6A, Homo sapiens, UniProt Q92794, residues 1-85)
Notes: 8-mer, flanks averaged, mean of 2 arrays, mostly near background
Residues (chain): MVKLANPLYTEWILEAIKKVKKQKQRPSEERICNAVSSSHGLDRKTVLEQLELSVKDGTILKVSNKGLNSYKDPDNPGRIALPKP
| Sequence | E-score |
| --- | --- |
| TTAAACAA | -0.285 |
| AGCGATAG | -0.0633 |
| CTACCTAC | 0.0185 |
| CCAACCGC | 0.129 |
| CCGTCCTA | 0.19 |
| ACCTTACA | -0.1 |
| CCTTCAAA | -0.119 |
| ACAGGGGC | -0.056 |
| ACCATGCA | -0.0593 |
| CGTACTGC | 0.17 |
| CAAATTGG | -0.168 |
| CTTTCGAC | -0.178 |
| GTCAAGAC | -0.00645 |
| CCGAGTTA | 0.00777 |
| CAACGAGG | -0.145 |
| AAACGCAA | 0.0433 |
| CTCAGACA | -0.0605 |
| AGAATAAT | -0.273 |
| TCTGCTAA | -0.201 |

Repeated from above (block 4):
| Sequence | E-score |
| --- | --- |
| CGTGTTCA | 0.0741 |
| CCTCTACA | 0.0324 |
| GGATAGAC | -0.0346 |
| GACGACTC | -0.259 |
| ATCCAAAC | 0.0868 |
| GAGCGTAA | 0.036 |
| AGCCAAGG | -0.128 |
| GTCCAGGA | -0.145 |
| AGAAGGTC | -0.07 |
| AACGATTG | 0.235 |
| AAGAGAAA | 0.039 |
| AGCGGCCG | -0.287 |
| AAGGACAA | 0.0799 |
